Measurements collected from several papers.
Numbered parts are unrelated; each lists some results of a single study.
Sequence of UniProt Q06187 (whole entry, looked up): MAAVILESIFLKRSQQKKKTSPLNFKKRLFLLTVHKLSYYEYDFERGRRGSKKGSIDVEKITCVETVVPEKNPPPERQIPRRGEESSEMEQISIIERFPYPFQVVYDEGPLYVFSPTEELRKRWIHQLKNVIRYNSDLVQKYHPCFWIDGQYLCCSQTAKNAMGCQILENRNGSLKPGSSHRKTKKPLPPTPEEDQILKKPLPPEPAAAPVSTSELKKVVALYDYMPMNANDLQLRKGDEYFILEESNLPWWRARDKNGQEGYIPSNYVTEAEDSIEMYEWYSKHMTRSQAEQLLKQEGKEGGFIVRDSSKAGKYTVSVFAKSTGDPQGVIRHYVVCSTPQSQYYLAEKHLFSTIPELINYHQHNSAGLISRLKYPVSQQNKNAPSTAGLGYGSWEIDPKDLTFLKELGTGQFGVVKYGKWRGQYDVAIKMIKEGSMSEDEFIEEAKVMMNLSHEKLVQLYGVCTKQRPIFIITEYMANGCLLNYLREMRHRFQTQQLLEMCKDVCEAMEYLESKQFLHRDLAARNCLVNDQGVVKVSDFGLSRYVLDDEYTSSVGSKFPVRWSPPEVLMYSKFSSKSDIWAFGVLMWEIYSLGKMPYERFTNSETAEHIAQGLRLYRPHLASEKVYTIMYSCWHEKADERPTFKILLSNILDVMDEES
Sequence of UniProt P68400 (whole entry, looked up): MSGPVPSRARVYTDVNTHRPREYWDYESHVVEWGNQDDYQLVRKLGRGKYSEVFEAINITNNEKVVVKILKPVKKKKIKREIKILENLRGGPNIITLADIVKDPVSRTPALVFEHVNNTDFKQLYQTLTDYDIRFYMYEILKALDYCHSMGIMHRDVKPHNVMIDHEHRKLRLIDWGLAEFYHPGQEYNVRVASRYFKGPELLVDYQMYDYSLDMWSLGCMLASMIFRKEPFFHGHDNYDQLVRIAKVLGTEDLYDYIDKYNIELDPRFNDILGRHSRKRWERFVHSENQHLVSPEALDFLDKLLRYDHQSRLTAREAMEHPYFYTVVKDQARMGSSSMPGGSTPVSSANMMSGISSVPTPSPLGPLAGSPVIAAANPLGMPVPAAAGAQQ
Sequence of UniProt Q16539 (whole entry, looked up): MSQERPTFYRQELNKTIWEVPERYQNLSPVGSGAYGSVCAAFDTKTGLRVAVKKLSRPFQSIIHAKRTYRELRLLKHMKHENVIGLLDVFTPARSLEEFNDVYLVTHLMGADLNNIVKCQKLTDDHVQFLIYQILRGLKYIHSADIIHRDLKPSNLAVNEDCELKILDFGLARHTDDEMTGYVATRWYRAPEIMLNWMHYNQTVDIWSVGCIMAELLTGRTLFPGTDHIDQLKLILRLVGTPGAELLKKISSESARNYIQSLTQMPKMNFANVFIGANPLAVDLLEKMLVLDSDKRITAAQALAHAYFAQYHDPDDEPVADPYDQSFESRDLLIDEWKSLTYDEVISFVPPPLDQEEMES
Sequence of UniProt Q15208 (whole entry, looked up): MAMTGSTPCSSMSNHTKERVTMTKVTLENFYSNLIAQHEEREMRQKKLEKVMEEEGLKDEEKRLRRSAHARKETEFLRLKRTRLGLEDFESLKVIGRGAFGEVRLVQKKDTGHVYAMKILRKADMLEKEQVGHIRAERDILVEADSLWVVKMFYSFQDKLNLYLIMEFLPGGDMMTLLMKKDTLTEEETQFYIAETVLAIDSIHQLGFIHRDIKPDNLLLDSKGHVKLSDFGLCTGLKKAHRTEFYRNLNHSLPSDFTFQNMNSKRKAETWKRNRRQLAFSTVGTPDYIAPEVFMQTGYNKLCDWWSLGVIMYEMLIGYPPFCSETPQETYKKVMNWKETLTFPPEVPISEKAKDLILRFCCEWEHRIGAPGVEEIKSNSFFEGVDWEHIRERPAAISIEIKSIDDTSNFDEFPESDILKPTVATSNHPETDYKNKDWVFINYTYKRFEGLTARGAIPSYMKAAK

Set 1
SMILES: C[C@@H](N)[C@H]1CC[C@H](C(=O)Nc2ccncc2)CC1
Read-out: enzyme activity
Mode: inhibitor
Concentration: 0.5 µM
Reference: control
Measurement: remaining activity
target = CSNK1A1 (Homo sapiens, UniProt P48729); value = 103%
target = CHEK1 (Homo sapiens, UniProt O14757); value = 91%
target = CSNK2A1 (Homo sapiens, UniProt P68400); value = 96.6%
target = PRKCI (Homo sapiens, UniProt P41743); value = 101%
target = NEK4 (Homo sapiens, UniProt P51957); value = 87.7%
target = LRRK2 (Homo sapiens, UniProt Q5S007); value = 67.8%
target = MAP3K10 (Homo sapiens, UniProt Q02779); value = 98.9%
target = Cyclin-dependent kinase 9, with cyclin T1 (CDK9, Homo sapiens, UniProt P50750); value = 85.7%
target = PRKG1 (Homo sapiens, UniProt Q13976); value = 73%
target = MAPK12 (Homo sapiens, UniProt P53778); value = 97.6%
target = IRAK4 (Homo sapiens, UniProt Q9NWZ3); value = 85.5%
target = LYN (Homo sapiens, UniProt P07948); value = 98.9%
target = AKT3 (Homo sapiens, UniProt Q9Y243); value = 97.3%
target = STK38 (Homo sapiens, UniProt Q15208); value = 106%
target = MKNK2 (Homo sapiens, UniProt Q9HBH9); value = 79.1%
target = MAPK13 (Homo sapiens, UniProt O15264); value = 96%
target = EPHA5 (Homo sapiens, UniProt P54756); value = 91.4%
target = MAP4K2 (Homo sapiens, UniProt Q12851); value = 94.4%
target = KIT (Homo sapiens, UniProt P10721); value = 93.8%
target = WNK2 (Homo sapiens, UniProt Q9Y3S1); value = 103%
target = BTK (Homo sapiens, UniProt Q06187); value = 105%
target = PLK2 (Homo sapiens, UniProt Q9NYY3); value = 91.2%
target = MAP2K6 (Homo sapiens, UniProt P52564); value = 92.5%

Set 2
Target: Calcium/calmodulin-dependent protein kinase type II subunit alpha (CAMK2A, Homo sapiens, UniProt Q9UQM7)
Sequence of UniProt Q9UQM7 (whole entry, looked up): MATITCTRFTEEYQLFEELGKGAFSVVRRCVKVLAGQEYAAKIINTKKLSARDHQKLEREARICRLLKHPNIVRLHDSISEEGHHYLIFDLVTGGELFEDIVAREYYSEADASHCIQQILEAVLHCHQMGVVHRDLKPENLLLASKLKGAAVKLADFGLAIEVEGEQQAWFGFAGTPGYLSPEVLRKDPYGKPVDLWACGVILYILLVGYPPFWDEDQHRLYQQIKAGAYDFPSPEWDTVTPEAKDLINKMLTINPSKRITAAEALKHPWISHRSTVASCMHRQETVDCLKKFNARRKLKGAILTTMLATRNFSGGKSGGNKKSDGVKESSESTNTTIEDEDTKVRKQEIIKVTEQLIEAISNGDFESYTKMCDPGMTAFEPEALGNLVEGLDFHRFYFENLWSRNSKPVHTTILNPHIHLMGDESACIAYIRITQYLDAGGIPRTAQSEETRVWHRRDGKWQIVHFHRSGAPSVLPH
Read-out: enzyme activity
Mode: inhibitor
Concentration: 10 µM
Measurement: inhibition
SMILES = O=C(O[C@@H]1Cc2c(O)cc(O)cc2O[C@@H]1c1ccc(O)c(O)c1)c1cc(O)c(O)c(O)c1; value = -37%
SMILES = COc1cc(O)c2c(=O)cc(-c3ccc(OC)c(-c4c(O)cc(O)c5c(=O)cc(-c6ccc(O)cc6)oc45)c3)oc2c1; value = -8%
SMILES = CCCC(=O)OCOC(=O)C1=C(C)NC(C)=C(C(=O)OC)C1c1cccc(Cl)c1Cl (stereo not drawn); value = 6%
SMILES = CCOC(=O)CCC(=O)OCC; value = -35%
SMILES = COc1cc(O)c2c(=O)cc(-c3ccc(O)c(OC)c3)oc2c1; value = -16%
SMILES = CC(=O)c1ccc(O)cc1; value = -9%
SMILES = C=C1C(=O)O[C@@H]2C[C@@]3(C)CCC[C@H](C)C3=C[C@H]12; value = 15%
SMILES = CN1CC(=O)NC1=N; value = -29%
SMILES = COC(=O)N[C@H](C(=O)N[C@@H](Cc1ccccc1)[C@@H](O)CN(Cc1ccc(-c2ccccn2)cc1)NC(=O)[C@@H](NC(=O)OC)C(C)(C)C)C(C)(C)C; value = 2%
SMILES = C[C@H](CS)C(=O)N1CCC[C@H]1C(=O)O; value = -9%
SMILES = C/C(=C\CNc1ncnc2c1ncn2[C@@H]1O[C@H](CO)[C@@H](O)[C@H]1O)CO; value = -10%

Set 3
Target: DNA polymerase theta, ATPase domain (POLQ, Homo sapiens, UniProt O75417)
Sequence of UniProt O75417 (whole entry, unmodified, looked up): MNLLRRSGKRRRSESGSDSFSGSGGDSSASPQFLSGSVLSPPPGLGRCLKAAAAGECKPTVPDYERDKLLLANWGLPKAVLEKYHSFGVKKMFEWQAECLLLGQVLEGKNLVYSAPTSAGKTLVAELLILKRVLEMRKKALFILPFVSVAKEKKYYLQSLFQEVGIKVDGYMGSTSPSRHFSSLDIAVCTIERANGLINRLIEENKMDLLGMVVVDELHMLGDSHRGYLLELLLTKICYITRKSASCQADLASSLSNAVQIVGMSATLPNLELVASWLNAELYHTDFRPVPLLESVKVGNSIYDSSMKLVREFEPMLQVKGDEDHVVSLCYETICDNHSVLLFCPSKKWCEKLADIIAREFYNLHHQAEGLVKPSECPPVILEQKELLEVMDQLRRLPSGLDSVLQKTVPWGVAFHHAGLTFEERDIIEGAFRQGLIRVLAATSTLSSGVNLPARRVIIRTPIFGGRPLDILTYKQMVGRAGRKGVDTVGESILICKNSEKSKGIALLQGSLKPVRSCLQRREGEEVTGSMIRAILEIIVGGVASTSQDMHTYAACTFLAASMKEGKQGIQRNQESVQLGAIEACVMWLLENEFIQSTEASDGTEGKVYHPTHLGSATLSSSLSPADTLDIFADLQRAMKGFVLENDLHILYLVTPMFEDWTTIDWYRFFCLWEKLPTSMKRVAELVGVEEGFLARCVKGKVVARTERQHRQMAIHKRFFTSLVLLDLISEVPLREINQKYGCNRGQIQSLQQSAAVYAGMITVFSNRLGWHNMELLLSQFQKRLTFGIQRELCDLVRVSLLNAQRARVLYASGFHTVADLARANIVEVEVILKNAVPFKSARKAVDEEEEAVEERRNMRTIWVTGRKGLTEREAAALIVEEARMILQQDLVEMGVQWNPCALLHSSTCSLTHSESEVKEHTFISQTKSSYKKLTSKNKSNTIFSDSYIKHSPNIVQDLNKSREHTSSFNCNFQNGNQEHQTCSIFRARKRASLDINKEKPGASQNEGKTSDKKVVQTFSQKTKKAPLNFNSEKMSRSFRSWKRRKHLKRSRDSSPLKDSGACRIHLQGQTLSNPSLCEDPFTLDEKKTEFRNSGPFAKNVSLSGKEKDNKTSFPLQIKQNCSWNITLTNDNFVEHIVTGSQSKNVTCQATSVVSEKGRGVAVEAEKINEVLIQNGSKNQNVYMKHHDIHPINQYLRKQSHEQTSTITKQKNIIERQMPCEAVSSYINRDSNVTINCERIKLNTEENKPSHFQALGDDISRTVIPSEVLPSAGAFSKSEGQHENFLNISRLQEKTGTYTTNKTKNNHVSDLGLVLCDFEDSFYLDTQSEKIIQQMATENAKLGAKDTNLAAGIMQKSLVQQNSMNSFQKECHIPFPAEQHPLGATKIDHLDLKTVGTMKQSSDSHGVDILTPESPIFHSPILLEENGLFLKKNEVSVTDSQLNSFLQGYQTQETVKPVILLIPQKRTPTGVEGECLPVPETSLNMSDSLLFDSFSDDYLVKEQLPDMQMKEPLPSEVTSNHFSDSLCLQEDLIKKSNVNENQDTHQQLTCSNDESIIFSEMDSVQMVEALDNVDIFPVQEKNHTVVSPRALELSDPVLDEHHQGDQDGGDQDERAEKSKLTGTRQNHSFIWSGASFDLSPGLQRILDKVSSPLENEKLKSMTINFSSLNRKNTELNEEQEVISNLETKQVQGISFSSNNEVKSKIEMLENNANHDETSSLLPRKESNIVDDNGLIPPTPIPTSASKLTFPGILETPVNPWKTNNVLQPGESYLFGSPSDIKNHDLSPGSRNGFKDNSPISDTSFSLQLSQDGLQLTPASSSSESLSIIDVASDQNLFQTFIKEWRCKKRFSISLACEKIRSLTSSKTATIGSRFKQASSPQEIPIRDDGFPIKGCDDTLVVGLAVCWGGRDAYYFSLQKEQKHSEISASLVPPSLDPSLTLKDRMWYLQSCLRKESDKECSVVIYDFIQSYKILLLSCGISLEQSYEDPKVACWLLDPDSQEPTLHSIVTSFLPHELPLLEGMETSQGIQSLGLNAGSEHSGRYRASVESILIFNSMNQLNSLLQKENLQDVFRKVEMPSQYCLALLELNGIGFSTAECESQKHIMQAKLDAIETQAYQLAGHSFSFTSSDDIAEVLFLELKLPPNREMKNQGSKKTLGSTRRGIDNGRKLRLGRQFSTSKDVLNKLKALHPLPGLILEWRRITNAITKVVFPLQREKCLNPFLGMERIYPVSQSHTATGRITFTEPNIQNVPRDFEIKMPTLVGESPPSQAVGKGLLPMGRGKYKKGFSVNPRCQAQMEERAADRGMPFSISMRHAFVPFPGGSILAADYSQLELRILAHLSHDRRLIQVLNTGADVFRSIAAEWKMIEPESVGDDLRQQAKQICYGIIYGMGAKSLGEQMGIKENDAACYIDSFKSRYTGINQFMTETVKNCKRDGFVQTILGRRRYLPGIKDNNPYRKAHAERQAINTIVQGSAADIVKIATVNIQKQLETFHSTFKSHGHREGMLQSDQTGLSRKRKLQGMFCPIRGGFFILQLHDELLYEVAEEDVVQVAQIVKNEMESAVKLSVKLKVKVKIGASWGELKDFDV
Read-out: enzyme activity
Mode: inhibitor
Concentration: 77 µM
Reference: untreated
Measurement: remaining activity
SMILES = CCC(=O)c1ccc2c(c1)N(CCCN(C)C)c1ccccc1S2; value = 102%
SMILES = CC#CC(=O)Nc1cc2c(Nc3ccc(F)c(Cl)c3)ncnc2cn1; value = 116%
SMILES = O=C(O)[C@H](O)[C@@H](O)[C@H](O[C@@H]1O[C@H](CO)[C@H](O)[C@H](O)[C@H]1O)[C@H](O)CO; value = 99.3%
SMILES = CC(CCc1ccc(O)cc1)NCCc1ccc(O)c(O)c1 (stereo not drawn); value = 101%
SMILES = C=C1/C(=C\C=C2/CCC[C@]3(C)[C@@H]([C@H](C)CCCC(C)C)CC[C@@H]23)C[C@@H](O)C[C@@H]1O; value = 98.6%
SMILES = O=C(CCCCCCC(=O)Nc1ccccc1)NO; value = 102%
SMILES = O=C(CCCN1CCC(O)(c2ccc(Br)cc2)CC1)c1ccc(F)cc1; value = 101%
SMILES = Cc1nc(C#Cc2ccnc(Cl)c2)c(C)n1-c1ccc(OC(F)(F)F)cc1; value = 95.2%

Set 4
SMILES: COc1ccc2c(O[C@@H]3C[C@H]4C(=O)N[C@]5(C(=O)O)CC5/C=C\CCCCC[C@H](NC(=O)OC5CCCC5)C(=O)N4C3)cc(-c3csc(NC(=O)C(C)C)n3)nc2c1C (stereo partly drawn)
Read-out: cell-free assay
Method: competition with immobilised ligand
Concentration: 1 µM
Measurement: remaining binding
target = CDK16 (Homo sapiens, UniProt Q00536); value = 79%
target = BTK (Homo sapiens, UniProt Q06187); value = 85%
target = CASK (Homo sapiens, UniProt O14936); value = 97%
target = Non-receptor tyrosine-protein kinase TYK2, JH2 (TYK2, Homo sapiens, UniProt P29597); value = 74%
target = Myosin-IIIa (MYO3A, Homo sapiens, UniProt Q8NEV4); value = 100%
target = PIK3CA (Homo sapiens, UniProt P42336); value = 75%
target = Tyrosine-protein kinase ABL1, non-phosphorylated (ABL1, Homo sapiens, UniProt P00519, Q252H); value = 70%
target = PRKCH (Homo sapiens, UniProt P24723); value = 100%
target = HUNK (Homo sapiens, UniProt P57058); value = 100%
target = PHKG2 (Homo sapiens, UniProt P15735); value = 100%
target = PRKD2 (Homo sapiens, UniProt Q9BZL6); value = 95%
target = MAPK14 (Homo sapiens, UniProt Q16539); value = 100%
target = IRAK1 (Homo sapiens, UniProt P51617); value = 69%
target = NEK1 (Homo sapiens, UniProt Q96PY6); value = 100%
target = SIK3 (Homo sapiens, UniProt Q9Y2K2); value = 97%
